Experimental data from different studies.
Each numbered part is a random draw from the data of one study; scales do not carry over between parts.
Sequence of UniProt P42336 (whole entry, unmodified, looked up): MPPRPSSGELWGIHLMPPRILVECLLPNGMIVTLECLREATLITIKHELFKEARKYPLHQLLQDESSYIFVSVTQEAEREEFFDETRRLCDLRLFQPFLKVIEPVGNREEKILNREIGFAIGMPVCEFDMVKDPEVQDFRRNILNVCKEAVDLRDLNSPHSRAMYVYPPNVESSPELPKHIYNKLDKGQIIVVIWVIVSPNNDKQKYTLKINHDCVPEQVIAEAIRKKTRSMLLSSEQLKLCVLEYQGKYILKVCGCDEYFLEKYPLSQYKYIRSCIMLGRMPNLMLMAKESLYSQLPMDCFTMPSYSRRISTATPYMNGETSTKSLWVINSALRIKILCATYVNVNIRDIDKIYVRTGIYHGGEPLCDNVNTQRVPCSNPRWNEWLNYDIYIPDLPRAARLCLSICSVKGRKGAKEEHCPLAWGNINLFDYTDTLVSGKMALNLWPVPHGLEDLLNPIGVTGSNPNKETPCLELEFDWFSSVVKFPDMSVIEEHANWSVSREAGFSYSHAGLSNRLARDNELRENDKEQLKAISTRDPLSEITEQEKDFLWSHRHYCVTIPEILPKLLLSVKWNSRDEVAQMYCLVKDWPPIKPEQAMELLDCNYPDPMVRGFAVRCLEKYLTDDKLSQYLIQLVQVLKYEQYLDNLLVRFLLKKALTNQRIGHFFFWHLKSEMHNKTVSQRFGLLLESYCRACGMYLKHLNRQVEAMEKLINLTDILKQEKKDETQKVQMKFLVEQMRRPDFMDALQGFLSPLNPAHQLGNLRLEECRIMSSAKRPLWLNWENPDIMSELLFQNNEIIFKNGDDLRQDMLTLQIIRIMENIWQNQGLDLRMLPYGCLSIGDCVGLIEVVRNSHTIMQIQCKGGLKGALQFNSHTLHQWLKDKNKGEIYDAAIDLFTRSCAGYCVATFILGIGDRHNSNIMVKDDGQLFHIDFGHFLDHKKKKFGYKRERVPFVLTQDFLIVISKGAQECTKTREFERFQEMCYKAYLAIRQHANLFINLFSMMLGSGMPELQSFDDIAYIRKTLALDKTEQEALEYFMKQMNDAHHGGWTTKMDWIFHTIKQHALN
Sequence of UniProt P45985 (whole entry, looked up): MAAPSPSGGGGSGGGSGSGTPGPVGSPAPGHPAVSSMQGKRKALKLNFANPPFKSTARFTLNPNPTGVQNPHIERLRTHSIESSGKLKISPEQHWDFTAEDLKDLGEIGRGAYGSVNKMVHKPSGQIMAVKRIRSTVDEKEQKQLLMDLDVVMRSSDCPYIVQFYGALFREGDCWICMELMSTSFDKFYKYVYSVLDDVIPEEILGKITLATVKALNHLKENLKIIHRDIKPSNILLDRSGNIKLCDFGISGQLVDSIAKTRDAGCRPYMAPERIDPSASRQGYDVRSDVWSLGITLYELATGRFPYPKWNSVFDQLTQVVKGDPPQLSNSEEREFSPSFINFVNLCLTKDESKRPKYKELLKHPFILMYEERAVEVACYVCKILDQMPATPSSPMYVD
Sequence of UniProt P35626 (whole entry, looked up): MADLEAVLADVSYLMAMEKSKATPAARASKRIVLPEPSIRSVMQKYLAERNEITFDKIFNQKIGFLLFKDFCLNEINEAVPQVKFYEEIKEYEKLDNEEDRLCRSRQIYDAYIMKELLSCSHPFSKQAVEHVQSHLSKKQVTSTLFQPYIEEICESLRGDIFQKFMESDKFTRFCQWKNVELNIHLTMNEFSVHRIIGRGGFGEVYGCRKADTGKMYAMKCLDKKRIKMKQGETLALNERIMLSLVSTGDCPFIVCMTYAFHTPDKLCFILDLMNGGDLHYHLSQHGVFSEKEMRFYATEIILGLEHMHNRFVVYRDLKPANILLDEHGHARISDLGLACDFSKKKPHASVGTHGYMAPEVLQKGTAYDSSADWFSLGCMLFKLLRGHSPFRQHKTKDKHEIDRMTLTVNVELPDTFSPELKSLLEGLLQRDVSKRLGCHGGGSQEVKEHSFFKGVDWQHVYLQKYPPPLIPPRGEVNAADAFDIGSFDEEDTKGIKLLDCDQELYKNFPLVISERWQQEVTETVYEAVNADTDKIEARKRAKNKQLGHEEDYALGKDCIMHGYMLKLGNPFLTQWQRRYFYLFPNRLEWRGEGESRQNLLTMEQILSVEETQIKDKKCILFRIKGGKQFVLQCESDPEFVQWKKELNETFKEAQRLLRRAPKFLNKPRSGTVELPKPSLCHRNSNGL
Sequence of UniProt P31152 (whole entry, looked up): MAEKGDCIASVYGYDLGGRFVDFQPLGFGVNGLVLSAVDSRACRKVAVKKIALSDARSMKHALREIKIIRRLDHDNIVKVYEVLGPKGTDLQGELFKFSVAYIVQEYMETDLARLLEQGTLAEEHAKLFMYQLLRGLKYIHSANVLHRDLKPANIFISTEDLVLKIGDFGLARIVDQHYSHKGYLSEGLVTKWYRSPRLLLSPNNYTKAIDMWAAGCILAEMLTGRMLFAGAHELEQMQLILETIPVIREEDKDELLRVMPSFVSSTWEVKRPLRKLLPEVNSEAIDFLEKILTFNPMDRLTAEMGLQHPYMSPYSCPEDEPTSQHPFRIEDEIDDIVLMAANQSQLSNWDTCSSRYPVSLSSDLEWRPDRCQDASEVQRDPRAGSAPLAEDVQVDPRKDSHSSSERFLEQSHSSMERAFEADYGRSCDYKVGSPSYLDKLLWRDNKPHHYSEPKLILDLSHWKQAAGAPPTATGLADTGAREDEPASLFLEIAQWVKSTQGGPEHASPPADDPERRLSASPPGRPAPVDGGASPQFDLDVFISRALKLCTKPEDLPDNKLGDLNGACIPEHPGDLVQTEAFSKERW
Sequence of UniProt P54646 (whole entry, looked up): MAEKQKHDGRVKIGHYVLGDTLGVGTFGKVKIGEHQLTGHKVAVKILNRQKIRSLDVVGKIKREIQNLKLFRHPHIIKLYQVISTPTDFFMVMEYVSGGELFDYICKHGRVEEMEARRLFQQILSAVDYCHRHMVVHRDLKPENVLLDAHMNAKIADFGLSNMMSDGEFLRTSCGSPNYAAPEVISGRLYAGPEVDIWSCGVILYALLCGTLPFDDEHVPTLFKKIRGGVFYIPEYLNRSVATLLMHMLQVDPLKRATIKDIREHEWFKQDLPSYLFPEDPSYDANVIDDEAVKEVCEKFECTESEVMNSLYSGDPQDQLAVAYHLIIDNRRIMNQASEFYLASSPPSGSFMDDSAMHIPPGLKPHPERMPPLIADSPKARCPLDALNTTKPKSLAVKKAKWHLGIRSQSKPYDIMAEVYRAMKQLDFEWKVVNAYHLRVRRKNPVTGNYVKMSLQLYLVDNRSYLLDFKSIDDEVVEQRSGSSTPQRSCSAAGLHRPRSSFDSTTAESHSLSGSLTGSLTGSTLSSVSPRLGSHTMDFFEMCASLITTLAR
Sequence of UniProt Q8N5S9 (whole entry, looked up): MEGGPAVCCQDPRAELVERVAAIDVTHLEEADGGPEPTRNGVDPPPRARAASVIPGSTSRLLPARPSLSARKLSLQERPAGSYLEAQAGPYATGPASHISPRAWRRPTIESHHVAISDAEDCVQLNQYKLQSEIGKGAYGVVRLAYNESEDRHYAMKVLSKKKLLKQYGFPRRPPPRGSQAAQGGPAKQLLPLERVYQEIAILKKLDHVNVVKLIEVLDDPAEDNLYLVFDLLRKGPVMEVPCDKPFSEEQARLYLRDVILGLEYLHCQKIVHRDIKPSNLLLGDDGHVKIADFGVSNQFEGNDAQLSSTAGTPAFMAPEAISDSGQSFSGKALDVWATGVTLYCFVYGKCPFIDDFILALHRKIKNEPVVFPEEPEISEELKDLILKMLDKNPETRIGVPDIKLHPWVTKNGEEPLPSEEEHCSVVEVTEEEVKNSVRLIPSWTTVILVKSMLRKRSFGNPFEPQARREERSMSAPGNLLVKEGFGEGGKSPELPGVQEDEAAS
Sequence of UniProt P45984 (whole entry, looked up): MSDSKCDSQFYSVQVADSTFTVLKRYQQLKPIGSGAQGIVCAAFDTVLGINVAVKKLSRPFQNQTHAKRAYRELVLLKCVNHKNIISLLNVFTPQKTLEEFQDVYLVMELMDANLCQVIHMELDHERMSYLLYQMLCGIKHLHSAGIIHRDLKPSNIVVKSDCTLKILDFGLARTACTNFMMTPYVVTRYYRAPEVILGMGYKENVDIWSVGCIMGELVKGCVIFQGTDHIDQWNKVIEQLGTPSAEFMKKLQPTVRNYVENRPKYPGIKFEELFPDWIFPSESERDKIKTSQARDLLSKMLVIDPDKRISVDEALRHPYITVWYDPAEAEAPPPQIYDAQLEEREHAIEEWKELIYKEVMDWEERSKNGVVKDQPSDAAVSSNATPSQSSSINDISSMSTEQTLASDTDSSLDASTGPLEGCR

Set 1 — species: mouse; sample: microsomes or S9; concentration: 2 µM; time: 0.5 h
Compound	remaining compound [%]
COC(=O)c1ccccc1NC(=O)CSc1nnnn1-c1ccc(OCc2ccccc2)cc1	0.355
COc1cc(=O)n(C)cc1C(=O)Nc1cc(C)on1	33.3
CC(C)(C)OC(=O)NC1CCN(c2nccn3c(=O)[nH]nc23)CC1	29.4
COCCOc1cc(=O)n2c(c1C(=O)NCCC1=CCCCC1)CCOCC2	27.5
Cc1ccc(Nc2nc3ccccc3n3nnnc23)cc1	3.93
Cc1nn(C)c2ncnc(N3CC(C)(C)N(C)C[C@@H]3C)c12	52.3
c1ccc(CCNCc2cccc(Oc3nnnn3-c3ccccc3)c2)cc1	17.9
CCOC(=O)C(OC(C)(C)C)c1c(C)nc2c(Br)c(C)nn2c1-c1ccc(Cl)cc1 (stereo not drawn)	16.9
Cc1cc(S(=O)(=O)Nc2ccc(=O)n(C)n2)sc1C	82.3
CCN(CC)c1ncc(CNc2ccc(F)cn2)s1	0.0459
CCc1c(C)nc2cc(-c3cc(OC)cc(OC)c3)nn2c1NCCN(CC)CC	2.87
CCOC(=O)CNC(=O)N1Cc2c(sc3c2CCCC3)-n2cccc2C1C(C)C (stereo not drawn)	< 1
COCCNC(=O)c1ccc(-n2ncc(C(=O)OC)c2N)cc1	66.8

Set 2 — observed: enzyme activity; action: inhibitor; concentration: 0.5 µM; reference: control
Target: Glycogen synthase kinase-3 alpha (GSK3A, Homo sapiens, UniProt P49840)
Sequence of UniProt P49840 (whole entry, looked up): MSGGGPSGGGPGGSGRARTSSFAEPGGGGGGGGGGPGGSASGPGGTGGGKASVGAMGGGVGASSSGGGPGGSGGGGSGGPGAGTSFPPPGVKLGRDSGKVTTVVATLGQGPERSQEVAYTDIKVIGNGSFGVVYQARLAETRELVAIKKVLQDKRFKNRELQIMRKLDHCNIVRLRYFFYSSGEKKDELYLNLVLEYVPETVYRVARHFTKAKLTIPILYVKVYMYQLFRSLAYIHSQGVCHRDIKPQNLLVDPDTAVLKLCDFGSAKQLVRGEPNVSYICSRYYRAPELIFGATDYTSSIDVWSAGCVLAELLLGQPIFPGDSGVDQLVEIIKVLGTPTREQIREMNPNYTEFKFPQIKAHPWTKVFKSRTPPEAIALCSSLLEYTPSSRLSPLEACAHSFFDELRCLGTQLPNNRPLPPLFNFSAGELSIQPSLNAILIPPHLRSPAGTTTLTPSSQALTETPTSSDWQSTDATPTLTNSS
Compound	remaining activity [%]
NC(=O)c1ccc(N(C(N)=O)c2c(F)cccc2F)nc1-c1ccc(F)cc1F	98.6
Cc1cncc2cccc(S(=O)(=O)N3CCCN(C(=O)CN)C[C@@H]3C)c12	99.6
Nc1ncnc2c1cnn2-c1ccccc1	90.3
Cc1cc(Nc2nc(-c3ccccc3)nc3ccccc23)n[nH]1	11.3
CC#CC(=O)Nc1cc2c(Nc3ccc(F)c(Cl)c3)ncnc2cn1	104
CC(C)(C)n1nc(Cc2cccc3ccccc23)c2c(N)ncnc21	92.1
CC(=O)c1ccc(N2CCOCC2)cc1O	101
CCc1[nH]c(-c2ccc(OC)cc2)nc1-c1ccncc1	99.1
O=S(=O)(NCCNC/C=C/c1ccc(Br)cc1)c1cccc2cnccc12	94.3
CC[n+]1c(/C=C/N(C)c2ccccc2)n(-c2ccccc2)c2ccc(-c3nc4ccccc4s3)cc21	103
Fc1ccc(-c2nc3n(c2-c2ccncc2)CCS3)cc1	116
O=C1NC(=O)C(c2c[nH]c3ccccc23)=C1c1c[nH]c2ccccc12	27.7
CSc1nc(-c2ccnc(N[C@@H](C)c3ccccc3)c2)c(-c2ccc(F)cc2)[nH]1 (racemic)	94.1
Oc1ccc(Nc2nc(-c3ccc(Cl)cc3)cs2)cc1	97.4
N#CC(=C(N)Sc1ccc(N)cc1)c1ccccc1C(F)(F)F	110
COc1cc(Nc2c(C#N)cnc3cc(OCCCN4CCN(C)CC4)c(OC)cc23)c(Cl)cc1Cl	103
CCCC(=O)Oc1ccc2[nH]c(C(=O)c3cc4ccccc4[nH]3)cc2c1	94.1
Nc1nc(Nc2ccc(S(N)(=O)=O)cc2)nn1C(=O)c1c(F)cccc1F	9.59

Set 3 — observed: cell-free assay; technique: competition with immobilised ligand; concentration: 1 µM
SMILES: O=C(N1CCS(=O)(=O)CC1)N1C[C@H](c2ccc(OC(F)(F)F)cc2)C[C@H](c2nc(C3CC3)no2)C1
target	remaining binding [%]
CAMKK1 (Homo sapiens, UniProt Q8N5S9)	100
MAPK4 (Homo sapiens, UniProt P31152)	100
FLT3 (Homo sapiens, UniProt P36888, R834Q)	100
FLT1 (Homo sapiens, UniProt P17948)	100
MAP2K4 (Homo sapiens, UniProt P45985)	95
GRK3 (Homo sapiens, UniProt P35626)	100
CDK17 (Homo sapiens, UniProt Q00537)	98
MAPK9 (Homo sapiens, UniProt P45984)	84
PRKAA2 (Homo sapiens, UniProt P54646)	100
PIK3CA (Homo sapiens, UniProt P42336, E542K)	88

Set 4 — organism: Sarcocystis neurona; observed: parasite growth; concentration: concentration not given; setting: secondary screen
SMILES	inhibition [%]
CC[N+](C)(CC)CCOC(=O)C(O)(c1ccccc1)C1CCCCC1.[Br-] (stereo not drawn)	-26.1
C[C@]12C=CC(=O)C=C1CC[C@@H]1[C@@H]2[C@@H](O)C[C@@]2(C)[C@H]1CC[C@]2(O)C(=O)COC(=O)CCC(=O)[O-].[Na+]	-14.4
Nc1nc(Cl)nc2c1ncn2[C@@H]1O[C@H](CO)[C@@H](O)[C@H]1O	-24.8
C[C@]12CCC(=O)C=C1CC[C@@H]1[C@@H]2[C@@H](O)C[C@@]2(C)[C@H]1CC[C@]2(O)C(=O)COC(=O)CCC(=O)O	-5.4
CC(C)NCC(O)c1ccc(O)c(O)c1.Cl (stereo not drawn)	6.6
C#C[C@]1(O)CC[C@H]2[C@@H]3CCC4=CC(=O)CC[C@@H]4[C@H]3CC[C@@]21C	-20.8
Cc1sc(N)c(C(=O)c2cccc(C(F)(F)F)c2)c1C	-15.9
